Assay results pooled from the literature.
Each numbered part is a random draw from the data of one study; scales do not carry over between parts.
Sequence of UniProt O15264 (whole entry, looked up): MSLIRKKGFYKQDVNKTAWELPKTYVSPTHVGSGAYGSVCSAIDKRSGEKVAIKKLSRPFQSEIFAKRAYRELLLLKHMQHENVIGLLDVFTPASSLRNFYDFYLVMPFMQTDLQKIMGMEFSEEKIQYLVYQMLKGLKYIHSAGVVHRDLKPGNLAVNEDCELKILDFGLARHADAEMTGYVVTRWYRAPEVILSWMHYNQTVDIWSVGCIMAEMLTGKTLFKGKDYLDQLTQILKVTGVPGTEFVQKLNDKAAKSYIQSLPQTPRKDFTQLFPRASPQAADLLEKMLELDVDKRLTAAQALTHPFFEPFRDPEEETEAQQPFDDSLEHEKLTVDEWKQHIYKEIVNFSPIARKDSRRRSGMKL
Sequence of UniProt P11802 (whole entry, looked up): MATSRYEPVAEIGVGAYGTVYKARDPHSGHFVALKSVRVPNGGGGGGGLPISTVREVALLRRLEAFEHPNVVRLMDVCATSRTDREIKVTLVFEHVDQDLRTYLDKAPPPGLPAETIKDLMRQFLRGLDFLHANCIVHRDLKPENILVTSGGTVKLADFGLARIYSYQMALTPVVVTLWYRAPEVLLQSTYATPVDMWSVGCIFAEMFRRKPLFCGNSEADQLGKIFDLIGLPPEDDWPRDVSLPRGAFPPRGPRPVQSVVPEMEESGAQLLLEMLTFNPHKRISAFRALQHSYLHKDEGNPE
Sequence of UniProt P57058 (whole entry, looked up): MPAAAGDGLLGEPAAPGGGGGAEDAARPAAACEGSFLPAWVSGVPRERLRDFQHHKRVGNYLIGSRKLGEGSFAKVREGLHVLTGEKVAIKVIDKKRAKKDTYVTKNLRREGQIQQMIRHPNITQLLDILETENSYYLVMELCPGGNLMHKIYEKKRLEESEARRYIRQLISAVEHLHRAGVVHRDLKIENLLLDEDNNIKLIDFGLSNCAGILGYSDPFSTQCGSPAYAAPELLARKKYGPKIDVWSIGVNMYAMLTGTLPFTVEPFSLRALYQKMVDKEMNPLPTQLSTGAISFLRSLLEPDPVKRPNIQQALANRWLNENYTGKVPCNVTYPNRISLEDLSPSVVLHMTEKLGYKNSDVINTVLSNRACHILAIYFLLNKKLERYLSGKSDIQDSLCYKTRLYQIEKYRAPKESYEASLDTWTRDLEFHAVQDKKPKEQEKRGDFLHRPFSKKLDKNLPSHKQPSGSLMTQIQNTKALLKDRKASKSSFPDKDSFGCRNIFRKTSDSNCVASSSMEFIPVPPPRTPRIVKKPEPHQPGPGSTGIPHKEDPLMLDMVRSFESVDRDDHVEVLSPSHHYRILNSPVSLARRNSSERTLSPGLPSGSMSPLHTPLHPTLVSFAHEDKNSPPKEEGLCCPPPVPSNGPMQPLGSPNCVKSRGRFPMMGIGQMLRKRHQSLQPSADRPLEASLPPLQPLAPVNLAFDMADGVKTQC
Sequence of UniProt P04629 (whole entry, looked up): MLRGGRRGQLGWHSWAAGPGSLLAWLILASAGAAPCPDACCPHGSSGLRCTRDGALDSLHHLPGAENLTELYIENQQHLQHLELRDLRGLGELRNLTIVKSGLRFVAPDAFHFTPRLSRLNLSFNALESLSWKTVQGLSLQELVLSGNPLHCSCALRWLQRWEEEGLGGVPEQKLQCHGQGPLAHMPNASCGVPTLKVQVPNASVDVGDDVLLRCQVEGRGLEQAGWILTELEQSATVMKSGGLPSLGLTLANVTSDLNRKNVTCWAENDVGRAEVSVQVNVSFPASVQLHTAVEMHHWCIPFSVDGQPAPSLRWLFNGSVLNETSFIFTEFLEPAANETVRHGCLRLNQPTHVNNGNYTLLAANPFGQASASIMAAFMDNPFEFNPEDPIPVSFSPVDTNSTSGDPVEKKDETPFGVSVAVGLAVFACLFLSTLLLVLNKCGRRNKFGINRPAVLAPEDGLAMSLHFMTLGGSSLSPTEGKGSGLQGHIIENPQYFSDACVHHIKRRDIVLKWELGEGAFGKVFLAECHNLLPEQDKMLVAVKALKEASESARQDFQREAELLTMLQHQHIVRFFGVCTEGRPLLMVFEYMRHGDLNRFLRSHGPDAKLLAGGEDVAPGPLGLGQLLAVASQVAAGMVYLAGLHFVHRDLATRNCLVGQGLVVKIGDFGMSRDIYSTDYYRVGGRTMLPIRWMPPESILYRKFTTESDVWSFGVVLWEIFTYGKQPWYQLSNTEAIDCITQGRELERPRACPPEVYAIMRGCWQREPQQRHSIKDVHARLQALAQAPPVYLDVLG
Sequence of UniProt Q9UL54 (whole entry, looked up): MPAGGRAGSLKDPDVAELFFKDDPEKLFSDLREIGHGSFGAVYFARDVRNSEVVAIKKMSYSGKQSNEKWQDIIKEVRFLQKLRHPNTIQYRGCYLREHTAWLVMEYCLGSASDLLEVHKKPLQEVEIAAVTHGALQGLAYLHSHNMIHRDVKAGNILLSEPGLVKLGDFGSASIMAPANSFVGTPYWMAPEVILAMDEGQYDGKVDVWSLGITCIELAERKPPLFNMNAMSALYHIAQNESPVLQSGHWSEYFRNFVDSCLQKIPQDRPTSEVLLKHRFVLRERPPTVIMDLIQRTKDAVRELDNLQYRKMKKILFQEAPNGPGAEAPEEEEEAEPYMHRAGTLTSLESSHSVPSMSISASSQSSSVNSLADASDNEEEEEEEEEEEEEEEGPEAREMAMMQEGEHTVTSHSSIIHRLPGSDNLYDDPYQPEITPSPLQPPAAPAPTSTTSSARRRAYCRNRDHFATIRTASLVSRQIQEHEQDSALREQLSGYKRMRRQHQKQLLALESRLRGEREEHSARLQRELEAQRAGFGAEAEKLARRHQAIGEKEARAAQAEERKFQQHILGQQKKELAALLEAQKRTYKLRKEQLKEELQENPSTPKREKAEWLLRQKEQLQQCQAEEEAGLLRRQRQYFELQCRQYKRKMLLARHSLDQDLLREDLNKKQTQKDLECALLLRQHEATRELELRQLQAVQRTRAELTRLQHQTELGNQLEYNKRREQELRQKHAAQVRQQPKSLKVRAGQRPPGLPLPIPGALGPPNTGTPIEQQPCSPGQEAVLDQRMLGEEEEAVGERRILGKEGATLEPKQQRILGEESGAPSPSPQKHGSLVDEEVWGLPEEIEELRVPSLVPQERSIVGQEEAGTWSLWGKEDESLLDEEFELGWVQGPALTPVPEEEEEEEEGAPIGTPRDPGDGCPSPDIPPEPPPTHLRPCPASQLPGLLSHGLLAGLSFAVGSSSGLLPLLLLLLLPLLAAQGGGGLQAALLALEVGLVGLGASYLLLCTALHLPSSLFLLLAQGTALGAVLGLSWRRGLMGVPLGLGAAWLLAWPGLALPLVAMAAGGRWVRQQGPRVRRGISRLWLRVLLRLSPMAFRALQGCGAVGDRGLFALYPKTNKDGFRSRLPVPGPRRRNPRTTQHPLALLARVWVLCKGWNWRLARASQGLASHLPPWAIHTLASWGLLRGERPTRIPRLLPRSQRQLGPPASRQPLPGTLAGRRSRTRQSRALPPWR
Sequence of UniProt P54760 (whole entry, looked up): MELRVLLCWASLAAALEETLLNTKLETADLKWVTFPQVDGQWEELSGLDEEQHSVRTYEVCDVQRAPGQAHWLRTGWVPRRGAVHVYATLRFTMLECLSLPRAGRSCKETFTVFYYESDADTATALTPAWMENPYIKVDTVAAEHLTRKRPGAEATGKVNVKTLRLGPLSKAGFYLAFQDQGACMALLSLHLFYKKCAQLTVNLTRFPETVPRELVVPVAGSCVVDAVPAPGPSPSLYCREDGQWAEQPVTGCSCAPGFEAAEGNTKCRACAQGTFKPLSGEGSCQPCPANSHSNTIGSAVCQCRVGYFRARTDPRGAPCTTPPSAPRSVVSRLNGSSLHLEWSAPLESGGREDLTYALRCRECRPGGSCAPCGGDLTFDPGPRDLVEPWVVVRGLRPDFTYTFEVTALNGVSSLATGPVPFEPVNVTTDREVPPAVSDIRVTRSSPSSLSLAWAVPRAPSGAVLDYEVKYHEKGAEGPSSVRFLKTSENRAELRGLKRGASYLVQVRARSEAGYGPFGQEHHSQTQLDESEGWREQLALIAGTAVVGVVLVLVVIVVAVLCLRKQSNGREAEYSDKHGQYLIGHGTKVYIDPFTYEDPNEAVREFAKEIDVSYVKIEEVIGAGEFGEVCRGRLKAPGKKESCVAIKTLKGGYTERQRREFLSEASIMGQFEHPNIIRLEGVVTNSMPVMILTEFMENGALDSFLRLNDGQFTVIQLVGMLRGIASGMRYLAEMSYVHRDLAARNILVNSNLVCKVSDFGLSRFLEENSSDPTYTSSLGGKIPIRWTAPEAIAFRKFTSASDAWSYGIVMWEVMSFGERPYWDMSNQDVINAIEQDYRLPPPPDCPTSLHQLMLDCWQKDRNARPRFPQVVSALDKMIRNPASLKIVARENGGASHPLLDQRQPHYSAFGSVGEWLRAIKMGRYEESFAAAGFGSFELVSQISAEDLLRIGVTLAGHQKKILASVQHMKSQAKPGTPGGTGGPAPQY
Sequence of UniProt O15530 (whole entry, looked up): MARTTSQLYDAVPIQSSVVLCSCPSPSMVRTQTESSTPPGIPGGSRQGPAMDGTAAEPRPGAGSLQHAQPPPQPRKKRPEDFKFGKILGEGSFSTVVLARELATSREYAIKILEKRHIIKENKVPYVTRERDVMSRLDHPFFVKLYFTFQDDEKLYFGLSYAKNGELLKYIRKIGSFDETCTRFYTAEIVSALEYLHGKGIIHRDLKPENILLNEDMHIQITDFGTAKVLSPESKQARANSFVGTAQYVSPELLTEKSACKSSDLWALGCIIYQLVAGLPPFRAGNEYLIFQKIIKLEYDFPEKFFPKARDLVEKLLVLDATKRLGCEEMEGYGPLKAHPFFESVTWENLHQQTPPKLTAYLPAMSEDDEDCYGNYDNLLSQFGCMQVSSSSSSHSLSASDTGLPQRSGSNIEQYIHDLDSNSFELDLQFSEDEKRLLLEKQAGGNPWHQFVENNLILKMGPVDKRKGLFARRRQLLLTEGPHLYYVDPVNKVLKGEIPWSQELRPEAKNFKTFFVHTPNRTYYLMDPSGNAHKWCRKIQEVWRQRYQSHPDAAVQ

Series 1
Cell line: mouse MPNST tumor cells
Technique: high-content immunofluorescence imaging
Measured: nuclear SOX9
Tested at: 10 µM
Time: 12 h
Notes: mean of 2 replicates
Relative to: DMSO control
Reading: higher = more nuclear SOX9
Quantity: nuclear SOX9 intensity
CC1(C)CCC(C)(C)c2cc(NC(=O)c3ccc(C(=O)O)cc3)ccc21: 110 % of DMSO
CCCN1CCC[C@@H](c2cccc(S(C)(=O)=O)c2)C1: 93 % of DMSO
Nc1ncnc2n[nH]c(Nc3ccc(F)cc3)c12: 88.9 % of DMSO
CC(C)(C)C(=O)C(=Nc1ccc(Cl)cc1)NNc1ccc(Cl)cc1: 105 % of DMSO

Series 2
SMILES: COc1cc(-c2cn(C3CCc4c(F)cccc4N(CC(F)(F)F)C3=O)nn2)ccc1-n1cnc(C)c1 (stereo not drawn)
Effect on: cell-free assay
Technique: competition with immobilised ligand
Tested at: 1 µM
Quantity: remaining binding
Mitogen-activated protein kinase 13 (MAPK13, Homo sapiens, UniProt O15264): 100%
MAP/microtubule affinity-regulating kinase 3 (MARK3, Homo sapiens, UniProt P27448): 100%
Cyclin-dependent kinase 4, with cyclin D1 (CDK4, Homo sapiens, UniProt P11802): 100%
Phosphatidylinositol 4,5-bisphosphate 3-kinase catalytic subunit gamma isoform (PIK3CG, Homo sapiens, UniProt P48736): 84%
3-phosphoinositide-dependent protein kinase 1 (PDPK1, Homo sapiens, UniProt O15530): 93%
High affinity nerve growth factor receptor (NTRK1, Homo sapiens, UniProt P04629): 81%
Proto-oncogene tyrosine-protein kinase receptor Ret (RET, Homo sapiens, UniProt P07949): 84%
Macrophage-stimulating protein receptor (MST1R, Homo sapiens, UniProt Q04912): 100%
Serine/threonine-protein kinase TAO2 (TAOK2, Homo sapiens, UniProt Q9UL54): 100%
Serine/threonine-protein kinase tousled-like 1 (TLK1, Homo sapiens, UniProt Q9UKI8): 100%
Ephrin type-B receptor 4 (EPHB4, Homo sapiens, UniProt P54760): 100%
Dual specificity mitogen-activated protein kinase kinase 5 (MAP2K5, Homo sapiens, UniProt Q13163): 58%
Interleukin-1 receptor-associated kinase 1 (IRAK1, Homo sapiens, UniProt P51617): 100%
Serine/threonine-protein kinase PAK 3 (PAK3, Homo sapiens, UniProt O75914): 100%
Serine/threonine-protein kinase pim-2 (PIM2, Homo sapiens, UniProt Q9P1W9): 100%
Tyrosine-protein kinase ABL1, phosphorylated (ABL1, Homo sapiens, UniProt P00519, F317L): 78%
Proto-oncogene tyrosine-protein kinase ROS (ROS1, Homo sapiens, UniProt P08922): 100%
Hormonally up-regulated neu tumor-associated kinase (HUNK, Homo sapiens, UniProt P57058): 100%

Series 3
Compound: Cc1nc(-c2ccccc2)c(-c2ccncc2)o1
Effect on: enzyme activity
Action: inhibitor
Technique: radiometric
Quantity: IC50
Mitogen-activated protein kinase 13 (MAPK13, Homo sapiens, UniProt O15264): > 30 µM
Mitogen-activated protein kinase 12 (MAPK12, Homo sapiens, UniProt P53778): > 30 µM
Mitogen-activated protein kinase 11 (MAPK11, Homo sapiens, UniProt Q15759): > 30 µM

Series 4
Organism: Sarcocystis neurona
Effect on: parasite growth
Tested at: 10 µM
Time: 96 h
Notes: first screen
Relative to: untreated
Quantity: log2 fold change
CN(C)CCCN1c2ccccc2Sc2ccc(Cl)cc21: 0.00388
COc1ccccc1OCCNCC(O)COc1cccc2[nH]c3ccccc3c12 (stereo not drawn): -0.9
OCCN1C[C@H](O)[C@@H](O)[C@H](O)[C@H]1CO: 0.18
Cc1ccsc1C(=CCCN1CCC[C@@H](C(=O)O)C1)c1sccc1C: 0.08
CSc1nc2cc(Cl)c(Oc3cccc(Cl)c3Cl)cc2[nH]1: -0.51

Series 5
Cell line: HaCaT
Tested at: 100 µM
Time: 36 h
Quantity: viability
Oc1ncnc2[nH]ncc12: 94.2%
Nc1cccc2c1CN(C1CCC(=O)NC1=O)C2=O (stereo not drawn): 92.2%
O=c1cc(-c2ccc(O)c(O)c2)oc2cc(O)cc(O)c12: 32.2%
CCN(CC)CCOCCOC(=O)C1(c2ccccc2)CCCC1: 69.1%
CC(C)C[C@H](NC(=O)CNC(=O)c1cc(Cl)ccc1Cl)B1OC(=O)C(CC(=O)O)(CC(=O)O)O1: 4.79%
COc1cc(/C=C/C(=O)O)ccc1O: 87.9%

For quick reference, copied from above (series 2):
Serine/threonine-protein kinase TAO2 (TAOK2, Homo sapiens, UniProt Q9UL54): 100%
Serine/threonine-protein kinase tousled-like 1 (TLK1, Homo sapiens, UniProt Q9UKI8): 100%
Ephrin type-B receptor 4 (EPHB4, Homo sapiens, UniProt P54760): 100%
Dual specificity mitogen-activated protein kinase kinase 5 (MAP2K5, Homo sapiens, UniProt Q13163): 58%
Interleukin-1 receptor-associated kinase 1 (IRAK1, Homo sapiens, UniProt P51617): 100%
Serine/threonine-protein kinase PAK 3 (PAK3, Homo sapiens, UniProt O75914): 100%
